Measurements collected from several papers.
Each numbered part is a random draw from the data of one study; scales do not carry over between parts.

Set 1
Target: RNA binding protein fox-1 homolog 2, RRM domain, GST-SBP tag (RBFOX2, Homo sapiens, UniProt O43251-10, residues 100-194)
Technique: RNA Bind-n-Seq
Form: RNA
Matrix: in vitro
Concentration: 365 nM
Notes: natural RNA segment, single round, ends assumed
Baseline: no-protein control
Direction: higher = stronger binding
Construct (chain): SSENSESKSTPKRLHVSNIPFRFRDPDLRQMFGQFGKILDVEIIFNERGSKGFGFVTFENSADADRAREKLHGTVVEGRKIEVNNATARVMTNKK
| Oligonucleotide | RBNS enrichment (R) |
| --- | --- |
| GGGAGUUCUACAGUCCGACGAUCGUUUUAAAAUGAUCAAUCUUUGUAUGAAAGUCAGUUUUCUUUCUUUAGGUAUCAGAAGAUUUUGCCUUAUUCUGAGGUCGGACUAGGGCCAAGCAAGCUUUUUCCUUCAUUGGAAUUCUCGGGUGCCAA | 0.605 |
| GGGAGUUCUACAGUCCGACGAUCGGCUCUGUCUCUAAGCCAGGUGUCAGGAUCAGAAUCAUGGGUAGAAGGUGCCAUUCAGCUCACAGCCGCACCCAGAAUCCUUUGCAGCCCUCCUUCUUUAUUUUUUUCCCUGGAAUUCUCGGGUGCCAA | 0.583 |
| GGGAGUUCUACAGUCCGACGAUCGUAGGACACCCCAUACCCAGGCUUGGAGGAGUGCACGCCACACCAAGCCUCUGGGUAGAAUCUGAUGUGGCCUGAAGAAACCCUGAAGGUCACUGUCACUGUGGCGGGACUGGAAUUCUCGGGUGCCAA | 0.308 |
| GGGAGUUCUACAGUCCGACGAUCAACAGGUCUUUUCUCUCUCCUUUAUGGUACUUCUCAGAACAAGAGAAACUGAGUUAGGGCUUGAGUCAGCAUCCCAGUGCUUUUGUCUAGCUUGGUUCUGGGGUUGAGAAUGGAAUUCUCGGGUGCCAA | 0.666 |

Set 2
Target: Sal-like protein 4, full length isoform B (SALL4, Homo sapiens, UniProt Q9UJQ4-2, residues 1-616)
Technique: universal PBM
Form: double-stranded DNA, one strand shown
Matrix: in vitro
Concentration: not given
Notes: 8-mer, flanks averaged, mean of replicates
Direction: higher = stronger binding
| Oligonucleotide | E-score |
| --- | --- |
| CACTTGTA | 0.154 |
| CCGTTGGC | -0.244 |
| ACGTCATG | 0.0891 |

Set 3
Target: Interferon regulatory factor 5, full length, phosphomimetic (IRF5, Homo sapiens, UniProt Q13568-2, residues 1-514, K96S/S451D/S453D/S456D/S462D)
Technique: protein-binding microarray
Form: double-stranded DNA, one strand shown
Matrix: in vitro
Concentration: 250 nM
Notes: 60-bp whole probe
With: salmon DNA 0.4 mg/ml
Baseline: random background probes
Direction: higher = stronger binding
| Oligonucleotide | log fluorescence |
| --- | --- |
| GCCTAGCACAACTCTCTAATTTTGAGACTGTGCTAGGTCTTGATTCGCTTGACGCTGCTG | 0.241 z-score |
| GCCTAGCACTCAGAACTCAACTGTCTGACTGTGCTAGTCTTGATTCGCTTGACGCTGCTG | 0.285 z-score |
| GCCTAGCACGACGGACTGGACTATCCGGACGTGCTAGTCTTGATTCGCTTGACGCTGCTG | -0.405 z-score |
| GCCTAGCACGACGAACTGGCGTTTCGAGACGTGCTAGTCTTGATTCGCTTGACGCTGCTG | 0.692 z-score |

Single results of other studies
| Substance | target | test | system | setting | scale | quantity | result |
| --- | --- | --- | --- | --- | --- | --- | --- |
| PhoQ, residues 284 288 289 292 302 303 SLGVVW | PhoP, residues 12 14 15 18 19 NNFVT (Escherichia coli, UniProt P23836) | Sort-seq, measured: YFP reporter | E. coli | PhoQ-PhoP variant library, with: 10 µM Mg2+ | baseline: high Mg2+ state, higher = stronger signaling | fold induction | 12.3 |

Excerpt of the above (set 1):
| Oligonucleotide | RBNS enrichment (R) |
| --- | --- |
| GGGAGUUCUACAGUCCGACGAUCGUAGGACACCCCAUACCCAGGCUUGGAGGAGUGCACGCCACACCAAGCCUCUGGGUAGAAUCUGAUGUGGCCUGAAGAAACCCUGAAGGUCACUGUCACUGUGGCGGGACUGGAAUUCUCGGGUGCCAA | 0.308 |
| GGGAGUUCUACAGUCCGACGAUCAACAGGUCUUUUCUCUCUCCUUUAUGGUACUUCUCAGAACAAGAGAAACUGAGUUAGGGCUUGAGUCAGCAUCCCAGUGCUUUUGUCUAGCUUGGUUCUGGGGUUGAGAAUGGAAUUCUCGGGUGCCAA | 0.666 |
